Published values collected from several papers.
Values joined by “and” are separate records of one study, mostly repeats; a detail may differ.
Method: steady-state kinetics
B1: enzyme C76S (UniProt A0A0P0CH59); chain MRIALFSDIHANLPALEAVLANMETQQLDAIYCLGDLVGYAPWPNEVVAEIRKRRIPTIAGNYDEGVGLWSPNCGSAYKTDTEKDLGQQSIDFTNNVVTEETRKYLRMLPRQLRLTFMDGSKEENKIELLLVHGSPRKINEYLFEDRPEKSFLKMMEEANADLLFFGHTHKPYHRAMPYEHEGQTRYRHAINIGSVGKPKDGDPRTGYVVVELTPESSLTQKDSIKVEFIRVPYDVETAAQAVEASPLPNEFAQMLRTA
B2: gdh (Bacillus subtilis, UniProt P12310); chain MYPDLKGKVVAITGAASGLGKAMAIRFGKEQAKVVINYYSNKQDPNEVKEEVIKAGGEAVVVQGDVTKEEDVKNIVQTAIKEFGTLDIMINNAGLENPVPSHEMPLKDWDKVIGTNLTGAFLGSREAIKYFVENDIKGNVINMSSVHEVIPWPLFVHYAASKGGIKLMTETLALEYAPKGIRVNNIGPGAINTPINAEKFADPKQKADVESMIPMGYIGEPEEIAAVAAWLASKEASYVTGITLFADGGMTQYPSFQAGRG
B3: enzyme (Arabidopsis thaliana, UniProt Q9C969); chain GSFGMLSRRTLGTDMPVMAQIRSLMAELTNPMSLAQGVVHWQPPQKALEKVKELVWDPIISSYGPDEGLPELRQALLKKLREENKLTNSQVMVTAGANQAFVNLVITLCDAGDSVVMFEPYYFNSYMAFQMTGVTNIIVGPGQSDTLYPDADWLERTLSESKPTPKVVTVVNPGNPSGTYVPEPLLKRIAQICKDAGCWLIVDNTYEYFMYDGLKHCCVEGDHIVNVFSFSKTYGMMGWRLGYIAYSERLDGFATELVKIQDNIPICAAIISQRLAVYALEEGSGWITERVKSLVKNRDIVKEALEPLGKENVKGGEGAIYLWAKLPEGHRDDFKVVRWLAHRHGVVVIPGCASGSPGYLRVSFGGLQEVEMRAAAARLRKGIEELLHHGMVE
B4: enzyme C33S (UniProt A0A0P0CH59); chain MRIALFSDIHANLPALEAVLANMETQQLDAIYSLGDLVGYAPWPNEVVAEIRKRRIPTIAGNYDEGVGLWSPNCGCAYKTDTEKDLGQQSIDFTNNVVTEETRKYLRMLPRQLRLTFMDGSKEENKIELLLVHGSPRKINEYLFEDRPEKSFLKMMEEANADLLFFGHTHKPYHRAMPYEHEGQTRYRHAINIGSVGKPKDGDPRTGYVVVELTPESSLTQKDSIKVEFIRVPYDVETAAQAVEASPLPNEFAQMLRTA
B5: enzyme (Chlamydomonas reinhardtii, UniProt A0A2K3D977); chain ASDSVLAVWRKADAVCFDVDCTITVNDSLDLLAEFMGVKEQVEILTNKAMDGSLSLEQALEERLNIINCSPDDIKRFIKAHPPASRMAPGIKELINSLQARGKAIYLISGGFRELTLPIAAYLGIPKENVFANRMNWQWDDETGMPTKLVGFDMSEPTAHNQGKPQAIARIRQRNPYNTVVMIGDGITDLEAVQTTGGADLFIGSGVVVERPAVAREADWYVYDYTDLLRTMARYSVAMVGSGAWACAAVRMIAQNTQVDDAADEFVDEVRMWVYEEDFEGKKLTEVINQTHTNPKYFPGFDLGPNVVAVPNIVDAVADADLIVFCAPHQFLHHICKQLVGKIKPGAAAISLTKGMRVRPEGPQLISQMVRRLLGIDCCVLMGANIATDIGREQLSEAVIGYDNLDAATLFQKIFQRPYFRVNLLPDPVGAEMCGTLKNIVALGAGMVDGLGLGPNSKAAIIRQGLVEMRAFSKALYPSVRDDTFMESCGVGDLVATCYGGRNRLVACEWTKAQMEGKPRTFEDLETDLLKGQKLQGVLTSNEVQEILKVRGWESQYPLFTTVNRIINGYLPPKYVVEFVAGAKYHIRRPGTDDEEIVPVRPKRPAAAGGVATAPILAA
Chain of UniProt Q944I4 (whole entry, looked up): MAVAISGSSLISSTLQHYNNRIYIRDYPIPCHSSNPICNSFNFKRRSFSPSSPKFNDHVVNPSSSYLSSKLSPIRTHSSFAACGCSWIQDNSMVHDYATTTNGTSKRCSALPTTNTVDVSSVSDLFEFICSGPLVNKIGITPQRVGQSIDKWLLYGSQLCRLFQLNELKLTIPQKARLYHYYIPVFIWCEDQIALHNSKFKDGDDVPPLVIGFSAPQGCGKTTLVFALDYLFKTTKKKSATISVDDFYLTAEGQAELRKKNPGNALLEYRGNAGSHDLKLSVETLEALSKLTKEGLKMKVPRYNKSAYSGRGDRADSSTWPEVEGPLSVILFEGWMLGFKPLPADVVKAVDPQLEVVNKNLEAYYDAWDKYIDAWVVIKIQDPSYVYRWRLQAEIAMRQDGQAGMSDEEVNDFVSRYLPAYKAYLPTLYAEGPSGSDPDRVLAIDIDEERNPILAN
Chain of UniProt P10632 (whole entry, looked up): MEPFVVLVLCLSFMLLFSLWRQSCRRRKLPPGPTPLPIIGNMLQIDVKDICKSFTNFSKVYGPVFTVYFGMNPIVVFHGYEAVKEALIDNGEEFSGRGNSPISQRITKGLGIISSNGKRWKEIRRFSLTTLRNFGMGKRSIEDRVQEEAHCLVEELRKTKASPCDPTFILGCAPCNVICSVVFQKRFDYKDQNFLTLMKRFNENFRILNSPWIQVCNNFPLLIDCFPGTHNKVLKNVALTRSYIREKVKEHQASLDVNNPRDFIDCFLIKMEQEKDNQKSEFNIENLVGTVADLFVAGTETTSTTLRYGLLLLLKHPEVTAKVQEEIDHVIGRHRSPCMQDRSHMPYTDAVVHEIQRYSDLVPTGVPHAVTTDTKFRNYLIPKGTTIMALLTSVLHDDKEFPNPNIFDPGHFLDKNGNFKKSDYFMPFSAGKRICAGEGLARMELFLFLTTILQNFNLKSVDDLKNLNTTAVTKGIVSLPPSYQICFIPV
Chain of UniProt Q682S0 (whole entry, looked up): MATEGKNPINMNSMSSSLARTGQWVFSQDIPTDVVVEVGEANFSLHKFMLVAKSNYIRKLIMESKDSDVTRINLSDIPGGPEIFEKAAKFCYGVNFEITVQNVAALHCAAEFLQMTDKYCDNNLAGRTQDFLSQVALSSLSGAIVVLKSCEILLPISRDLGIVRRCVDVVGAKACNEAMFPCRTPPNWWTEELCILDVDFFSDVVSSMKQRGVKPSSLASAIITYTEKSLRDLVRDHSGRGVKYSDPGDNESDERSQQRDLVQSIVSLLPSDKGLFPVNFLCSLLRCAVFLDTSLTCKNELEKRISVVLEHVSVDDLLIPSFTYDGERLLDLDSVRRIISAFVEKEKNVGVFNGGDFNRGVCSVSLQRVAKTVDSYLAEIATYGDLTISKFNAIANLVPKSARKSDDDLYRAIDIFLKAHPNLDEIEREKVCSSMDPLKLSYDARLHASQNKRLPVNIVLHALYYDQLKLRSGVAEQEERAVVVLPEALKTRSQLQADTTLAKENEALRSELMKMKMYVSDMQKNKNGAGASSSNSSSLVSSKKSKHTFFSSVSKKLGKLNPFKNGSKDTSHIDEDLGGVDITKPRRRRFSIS
Chain of UniProt P22310 (whole entry, looked up): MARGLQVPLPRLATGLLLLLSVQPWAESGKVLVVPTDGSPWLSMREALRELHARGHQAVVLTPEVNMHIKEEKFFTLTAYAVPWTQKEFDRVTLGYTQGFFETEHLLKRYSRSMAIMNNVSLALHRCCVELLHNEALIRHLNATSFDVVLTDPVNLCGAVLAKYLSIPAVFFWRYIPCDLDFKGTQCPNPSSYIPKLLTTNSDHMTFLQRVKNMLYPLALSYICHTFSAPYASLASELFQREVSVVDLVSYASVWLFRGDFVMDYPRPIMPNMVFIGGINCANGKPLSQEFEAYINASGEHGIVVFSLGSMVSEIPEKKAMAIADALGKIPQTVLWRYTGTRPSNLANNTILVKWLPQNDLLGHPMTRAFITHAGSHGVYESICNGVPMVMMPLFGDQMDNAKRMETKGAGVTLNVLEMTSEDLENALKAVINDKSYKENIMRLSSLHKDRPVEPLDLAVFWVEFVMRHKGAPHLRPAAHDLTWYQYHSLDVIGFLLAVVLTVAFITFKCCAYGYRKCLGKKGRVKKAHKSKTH
Chain of UniProt Q9GV41 (whole entry, looked up): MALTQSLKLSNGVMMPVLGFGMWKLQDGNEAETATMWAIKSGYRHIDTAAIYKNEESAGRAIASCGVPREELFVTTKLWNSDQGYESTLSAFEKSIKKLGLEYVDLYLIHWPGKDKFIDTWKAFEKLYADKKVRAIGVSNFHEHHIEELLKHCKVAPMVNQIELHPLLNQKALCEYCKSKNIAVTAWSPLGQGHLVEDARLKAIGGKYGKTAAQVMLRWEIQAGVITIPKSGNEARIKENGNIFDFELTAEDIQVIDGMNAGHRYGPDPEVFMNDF
Chain of UniProt P28186 (whole entry, looked up): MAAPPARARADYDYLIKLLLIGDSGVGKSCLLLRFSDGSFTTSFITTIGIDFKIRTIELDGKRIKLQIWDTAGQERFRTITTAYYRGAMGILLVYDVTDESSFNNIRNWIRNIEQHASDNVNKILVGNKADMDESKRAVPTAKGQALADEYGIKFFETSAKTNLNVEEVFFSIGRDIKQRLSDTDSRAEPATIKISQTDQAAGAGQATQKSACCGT

`UGT1A4 (Homo sapiens, UniProt P22310)` has a Vmax of 0.000568 µmol/min/mg (CN1CCN(CCCN2c3ccccc3Sc3ccc(C(F)(F)F)cc32)CC1; 37 °C, not purified).
For `CYP2C8 (Homo sapiens, UniProt P10632)`, the Vmax was 0.000363 µmol/min/mg (CC(C)=CCc1cc2c(cc1O)O[C@H](c1ccc(O)cc1)CC2=O; pH 7.4, 37 °C).
For `enzyme (Trypanosoma brucei, UniProt Q9GV41)`, the Vmax was 22 µmol/min/mg (O=Cc1ccc([N+](=O)[O-])cc1; pH 7, 37 °C, with: NADPH 100 µM).
For `B1 (enzyme C76S)`, the Vmax was 0.139 µmol/min/mg (O=[N+]([O-])c1ccc(OP(=O)(O)O)cc1; pH 7, 37 °C, with: Ni2+ 0.25 mM).
The Vmax of `enzyme (Saccharina japonica, UniProt A0A097IUE3)` is reported as 23.6 µmol/min/mg (Nc1ncnc2c1ncn2[C@@H]1O[C@H](COP(=O)(O)OP(=O)(O)O)[C@@H](O)[C@H]1O; pH 6.5, 25 °C, with: 16 mM PEP).
With `B2 (gdh)` the Vmax was 270 µmol/min/mg (NC(=O)c1ccc[n+]([C@@H]2O[C@H](COP(=O)(O)OP(=O)(O)OC[C@H]3O[C@@H](n4cnc5c(N)ncnc54)[C@H](O)[C@@H]3O)[C@@H](O)[C@H]2O)c1; pH 8, 50 °C).
`B3 (enzyme)` has a Vmax of 1400 µM/min/mg and 2550 µM/min/mg (O=C(O)C(=O)Cc1c[nH]c2ccccc12).
The Vmax of `gdh E198C (Bacillus subtilis)` is reported as 588 µmol/min/mg (NC(=O)c1ccc[n+]([C@@H]2O[C@H](COP(=O)(O)OP(=O)(O)OC[C@H]3O[C@@H](n4cnc5c(N)ncnc54)[C@H](O)[C@@H]3O)[C@@H](O)[C@H]2O)c1; pH 8, 45 °C).
`enzyme (Bacteroides fragilis, UniProt Q5LAD6)` gave a Vmax of 0.00187 µmol/min (C[C@@H]1O[C@@H](Oc2ccc([N+](=O)[O-])cc2)[C@@H](O)[C@H](O)[C@@H]1O; pH 7, 37 °C).
With `enzyme (Arabidopsis thaliana, UniProt Q944I4)` the Vmax was 78 µmol/min/mg (O=C(O)[C@H](O)CO; pH 7.8, 30 °C).
The Vmax of `B4 (enzyme C33S)` is reported as 0.136 µmol/min/mg (O=[N+]([O-])c1ccc(OP(=O)(O)O)cc1; pH 7, 37 °C, with: Ni2+ 0.25 mM).
`enzyme (Ectocarpus siliculosus, UniProt D7FYY3)` has a Vmax of 17.8 µmol/min/mg (Nc1ncnc2c1ncn2[C@@H]1O[C@H](COP(=O)(O)OP(=O)(O)O)[C@@H](O)[C@H]1O; pH 5.5, 25 °C, with: 16 mM PEP).
`B5 (enzyme)` has a Vmax of 193 µmol/min/mg (O=C(CO)COP(=O)(O)O; pH 7.5, with: NADH 500 µM).
With `RABE1C (Arabidopsis thaliana, UniProt P28186)` the Vmax was 1.74 µmol/min (Nc1nc2c(ncn2[C@@H]2O[C@H](COP(=O)(O)OP(=O)(O)OP(=O)(O)O)[C@@H](O)[C@H]2O)c(=O)[nH]1; pH 7.5, 30 °C).
`gdh N192L (Bacillus subtilis)` gave a Vmax of 392 µmol/min/mg (NC(=O)c1ccc[n+]([C@@H]2O[C@H](COP(=O)(O)OP(=O)(O)OC[C@H]3O[C@@H](n4cnc5c(N)ncnc54)[C@H](O)[C@@H]3O)[C@@H](O)[C@H]2O)c1; pH 7, 40 °C).
`enzyme (Sargassum horneri, UniProt A0A097IUG6)` gave a Vmax of 37.5 µmol/min/mg (Nc1ncnc2c1ncn2[C@@H]1O[C@H](COP(=O)(O)OP(=O)(O)O)[C@@H](O)[C@H]1O; pH 6.5, 25 °C, with: 16 mM PEP).
`RPT2 (Arabidopsis thaliana, UniProt Q682S0)` has a Vmax of 2.87 µmol/min (Nc1nc2c(ncn2[C@@H]2O[C@H](COP(=O)(O)OP(=O)(O)OP(=O)(O)O)[C@@H](O)[C@H]2O)c(=O)[nH]1; pH 7.5, 30 °C).

A few entries again:
For `enzyme (Trypanosoma brucei, UniProt Q9GV41)`, the Vmax was 22 µmol/min/mg (O=Cc1ccc([N+](=O)[O-])cc1; pH 7, 37 °C, with: NADPH 100 µM).
For `B1 (enzyme C76S)`, the Vmax was 0.139 µmol/min/mg (O=[N+]([O-])c1ccc(OP(=O)(O)O)cc1; pH 7, 37 °C, with: Ni2+ 0.25 mM).
The Vmax of `enzyme (Saccharina japonica, UniProt A0A097IUE3)` is reported as 23.6 µmol/min/mg (Nc1ncnc2c1ncn2[C@@H]1O[C@H](COP(=O)(O)OP(=O)(O)O)[C@@H](O)[C@H]1O; pH 6.5, 25 °C, with: 16 mM PEP).
